# Measurements gathered from unrelated publications.
# Numbered parts are unrelated; each lists some results of a single study.

# Block 1
# Target: Sal-like protein 4, full length isoform B (SALL4, Homo sapiens, UniProt Q9UJQ4-2, residues 1-616)
# Method: universal PBM
# Molecule type: double-stranded DNA, one strand shown
# Sample: in vitro
# Tested at: not given
# Notes: 8-mer, flanks averaged, mean of replicates
# Reading: higher = stronger binding
Oligonucleotide,E-score
CTTCGTTA,0.0743
GGAAGCCC,-0.304
ATGGCGCC,-0.213
GGAGCCTA,-0.208
ATAGCCCC,-0.258
CCGCAAGC,-0.3
ACCATGGG,-0.343
AGAAGCAG,-0.0581

# Block 2
# Target: Prothrombin, mature alpha-thrombin (F2, Homo sapiens, UniProt P00734)
# Method: aptamer microarray, sandwich
# Molecule type: DNA with 2'F-ANA
# Sample: in vitro
# Tested at: 200 nM
# Notes: whole 15-mer aptamer, many near background
# With: Cy3 exosite-II aptamer, 400 nM
# Reading: higher = stronger binding
# Oligonucleotide: GGTTGGTGTGGTTGG
Modification,mean fluorescence intensity [a.u.]
2'F-ANA at 1 2 4 6 9 11 13 14,61.6
2'F-ANA at 3 4 5 6 8 10 13 14 15,46.7
2'F-ANA at 2 3 6 7 10 13,352
2'F-ANA at 1 2 6 8 9 14,55
2'F-ANA at 1 3 6 7 10 11 12 15,87.6
2'F-ANA at 7 9 10 11 13 14 15,117
2'F-ANA at 1 2 4 5 10 12 13 14 15,46.3
2'F-ANA at 2 5 9 10 11 12 13 15,63

# Block 3
# Target: RING finger protein unkempt homolog, zinc fingers 1-6, GST-SBP tag (UNK, Homo sapiens, UniProt Q9C0B0, residues 30-357)
# Method: RNA Bind-n-Seq
# Molecule type: RNA
# Sample: in vitro
# Tested at: not given
# Notes: RNA with constant flanks, human-mouse chimeric sites, ends assumed
# Reference: input RNA pool
# Reading: higher = stronger binding
# Constant ends, left off below: GGGAGUUCUACAGUCCGACGAUC … CAACAGAGGAUUGAGCAUCA
# Residues (chain): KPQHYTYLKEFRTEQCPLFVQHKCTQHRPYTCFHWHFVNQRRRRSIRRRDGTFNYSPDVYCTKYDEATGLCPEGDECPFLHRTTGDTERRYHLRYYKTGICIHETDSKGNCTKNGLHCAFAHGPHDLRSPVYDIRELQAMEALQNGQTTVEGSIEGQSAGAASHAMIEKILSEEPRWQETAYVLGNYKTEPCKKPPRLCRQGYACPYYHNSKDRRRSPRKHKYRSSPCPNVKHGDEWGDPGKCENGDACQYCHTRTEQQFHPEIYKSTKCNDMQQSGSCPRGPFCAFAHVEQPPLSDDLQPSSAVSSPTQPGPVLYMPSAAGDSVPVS
Oligonucleotide,bound/input enrichment [ratio]
AGAGCCCAGGAUGUUGAUGCUACAAACCCAAAUUAUGAAAUUAUGUGUAUGAUCAGAGACUUCAGAGGGAGCUUGGAUUACAGACCCCUAACAACAGCAGAUCCUAUUGAUGAACAUAGG,0.371
GUGACUGGUGUUAAGAUUUCCCCUCAGCAAAGAAGUGCAGUAGUCACCAUAAUUCCAUCUGUGGUGAAUGCCAAUCAGAUUGUGGAGCUGGUCCCAGACCUCAGUUUAGAUACUGGGACU,0.241
UAUAUCACCAAUGUUCUACAAAAUCCUGACUUGGCUCUGAGAAUGGCUGUGCGGAACAACUUAGCCGGUGCUGAAGAACUCUUUGCCCGGAAAUUUAAUGCUCUCUUCGCCCAGGGAAAC,0.45
AAAGAGAAAGCUAAAACACUAAUAGAGAAGAGGAUUGGCAAAGAGAAAUUUCAUAGAAAACUAGGAUUUAUUAGCAAACAUGAGUUAUAUUCCAGAGCGUCUCAGAAACCCCAGCCAAAC,11.9
CUGGCCUGGCCCUCCCCUCUAGUGACCUUCUCUGCAUUCACUGCUUCUGCAUCAGAUACUUUCAGCUGCAACUCCCUACUGGGUGGGGCACCCAUUUCAGGCAGAAGGUUUUGGUACCCU,0.566
GCGGCAGAAUCAUGGAGGACAUAAUGCAGCUCCCCAAAGCGCGCGUCAACGCCGGCAUGUUACCACAGUAUAUCGACCGGCCCGUGUGCUUCGUGGGGAAGCUGGAAAAGAUUCAUCCCA,0.0785
AGCACAACACCAGCUAAGCUAAGAAAUCCUUGCACAAGUGAACAAAACUGCACCAGCCCAUUUAGCUACAAAAAUGUGCUUAGUCUUACUGACAGAGGAGAGUUUUUCAAUGAACUUGUU,1.14
GUACUGCAGCAGCAGGGCAAGCUGCAGGAAGCUCUGAUGCAUUAUAAAGAAGCCAUACGAAUCAGUCCUACCUUUGCUGAUGCCUACUCUAAUAUGGGAAACACUCUAAAGGAGAUGCAG,0.178

# Further values, each from its own experiment
Sequence,target,test,test system,conditions,endpoint,value
FPRYPLNVL,"HLA class I histocompatibility antigen, A alpha chain, allele A*80:01 (Homo sapiens, UniProt P04439)",peptide-MHC binding,peptide,concentration not given,binding,inactive

# Repeated from above (block 3):
Oligonucleotide,bound/input enrichment [ratio]
GCGGCAGAAUCAUGGAGGACAUAAUGCAGCUCCCCAAAGCGCGCGUCAACGCCGGCAUGUUACCACAGUAUAUCGACCGGCCCGUGUGCUUCGUGGGGAAGCUGGAAAAGAUUCAUCCCA,0.0785
AGCACAACACCAGCUAAGCUAAGAAAUCCUUGCACAAGUGAACAAAACUGCACCAGCCCAUUUAGCUACAAAAAUGUGCUUAGUCUUACUGACAGAGGAGAGUUUUUCAAUGAACUUGUU,1.14
